# Literature values that unrelated publications cite.
# ± marks the error that the study gave.
# OPRD1: Delta-type opioid receptor (OPRD1, Homo sapiens, UniProt P41143)
# UniProt P41143, sequence (whole entry, looked up): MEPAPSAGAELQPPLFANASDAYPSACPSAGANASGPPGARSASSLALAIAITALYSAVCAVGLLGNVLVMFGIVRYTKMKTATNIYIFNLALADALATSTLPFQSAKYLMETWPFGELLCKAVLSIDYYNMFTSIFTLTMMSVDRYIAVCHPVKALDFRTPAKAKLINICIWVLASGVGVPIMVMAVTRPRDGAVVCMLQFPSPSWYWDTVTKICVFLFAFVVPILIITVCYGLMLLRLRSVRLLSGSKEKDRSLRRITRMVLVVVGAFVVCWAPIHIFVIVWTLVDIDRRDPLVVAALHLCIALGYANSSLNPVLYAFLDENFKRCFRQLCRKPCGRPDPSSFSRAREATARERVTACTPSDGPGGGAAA
# UniProt Q9GZZ6, sequence (whole entry, looked up): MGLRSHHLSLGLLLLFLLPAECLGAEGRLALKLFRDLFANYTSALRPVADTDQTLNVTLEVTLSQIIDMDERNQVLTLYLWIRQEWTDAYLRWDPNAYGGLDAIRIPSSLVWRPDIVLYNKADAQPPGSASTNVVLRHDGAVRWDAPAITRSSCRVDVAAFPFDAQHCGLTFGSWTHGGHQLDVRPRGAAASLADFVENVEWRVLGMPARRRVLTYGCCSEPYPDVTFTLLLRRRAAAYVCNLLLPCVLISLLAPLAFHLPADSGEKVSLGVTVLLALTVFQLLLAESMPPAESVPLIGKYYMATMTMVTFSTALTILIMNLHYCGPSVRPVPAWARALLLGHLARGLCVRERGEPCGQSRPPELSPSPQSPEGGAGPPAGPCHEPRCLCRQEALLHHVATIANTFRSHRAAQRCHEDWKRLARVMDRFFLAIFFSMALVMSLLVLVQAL
# UniProt Q9UGM1, sequence (whole entry, looked up): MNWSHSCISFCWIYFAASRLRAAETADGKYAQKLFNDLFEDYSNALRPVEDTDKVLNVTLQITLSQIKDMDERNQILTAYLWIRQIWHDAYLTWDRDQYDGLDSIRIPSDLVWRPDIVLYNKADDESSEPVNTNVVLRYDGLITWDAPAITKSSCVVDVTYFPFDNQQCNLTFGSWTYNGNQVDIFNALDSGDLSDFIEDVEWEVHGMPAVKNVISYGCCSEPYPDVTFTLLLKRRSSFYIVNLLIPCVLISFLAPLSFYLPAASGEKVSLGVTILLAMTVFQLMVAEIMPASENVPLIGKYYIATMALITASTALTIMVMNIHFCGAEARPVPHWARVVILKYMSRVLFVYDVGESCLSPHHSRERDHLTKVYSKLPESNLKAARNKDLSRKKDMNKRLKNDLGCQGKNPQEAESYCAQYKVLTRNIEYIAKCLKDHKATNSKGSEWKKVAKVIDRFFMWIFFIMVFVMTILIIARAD
SMILES,tested on,test,system,conditions,scale,endpoint,value
Oc1ccc2c3c1O[C@H]1c4[nH]c5ccccc5c4C[C@@]4(O)[C@@H](C2)N(CC2CC2)CC[C@]314,OPRD1,,,historical reference value,,Hill coefficient,1
Nc1ncnc2c1ncn2[C@@H]1O[C@H](CO)[C@@H](O)[C@H]1O,"Adenosine/guanosine nucleoside ribohydrolase (Trichomonas vaginalis, UniProt A2EYV3)","substrate, 1H NMR",,,,Km,54 µM
O=C1C=CC(=O)c2ccccc21,"Reaction center protein M chain, QA site (pufM, Cereibacter sphaeroides, UniProt P0C0Y9)","P+HA− charge separation, delayed fluorescence",,,,free energy change,-540 meV
C[C@]12CCC(=O)C=C1CC[C@@H]1[C@@H]2CC[C@]2(C)C(=O)CC[C@@H]12,aromatase human placental,substrate,,,,Km,0.014 µM
Oc1ccc2c3c1O[C@H]1c4[nH]c5ccccc5c4C[C@@]4(O)[C@@H](C2)N(CC2CC2)CC[C@]314,OPRD1,,,,,Hill coefficient,1
COc1cc2c3cc1Oc1cc(ccc1O)C[C@@H]1c4c(cc(OC)c(O)c4Oc4ccc(cc4)C[C@@H]3N(C)CC2)CC[N+]1(C)C,,ACh iontophoretic pulse response,end-plate,concentration not given,relative to: control,end-plate response,25%
Brc1ccc(Oc2ccc(Br)cc2Br)c(Br)c1,H295R,,,concentration not given,,aromatase reduction,no effect
Nc1ncnc2c1ncn2[C@@H]1O[C@H](COP(=O)(O)OP(=O)(O)OP(=O)(O)O)[C@@H](O)[C@H]1O,"dnaK (Escherichia coli, UniProt P0A6Y8, E213C/T22C)",,,"2000 nM, 35 °C",,rate,~3 s⁻¹
CN1CCc2[nH]c3ccccc3c2CC1.O=C(O)/C=C/C(=O)O,"Neuronal acetylcholine receptor; alpha9/alpha10 (Homo sapiens, UniProt Q9GZZ6+Q9UGM1)",inhibitor,,added: 6 µM acetylcholine,,Hill coefficient,1.9 ± 0.2

# For quick reference, copied from above:
SMILES,tested on,test,system,conditions,scale,endpoint,value
COc1cc2c3cc1Oc1cc(ccc1O)C[C@@H]1c4c(cc(OC)c(O)c4Oc4ccc(cc4)C[C@@H]3N(C)CC2)CC[N+]1(C)C,,ACh iontophoretic pulse response,end-plate,concentration not given,relative to: control,end-plate response,25%
